Assay results collected from several papers.
Every numbered part comes from another study and shows a few of its results, in no order. Several values in a cell are separate wells, animals, samples, runs or records.
Chain of UniProt P28223 (whole entry, looked up): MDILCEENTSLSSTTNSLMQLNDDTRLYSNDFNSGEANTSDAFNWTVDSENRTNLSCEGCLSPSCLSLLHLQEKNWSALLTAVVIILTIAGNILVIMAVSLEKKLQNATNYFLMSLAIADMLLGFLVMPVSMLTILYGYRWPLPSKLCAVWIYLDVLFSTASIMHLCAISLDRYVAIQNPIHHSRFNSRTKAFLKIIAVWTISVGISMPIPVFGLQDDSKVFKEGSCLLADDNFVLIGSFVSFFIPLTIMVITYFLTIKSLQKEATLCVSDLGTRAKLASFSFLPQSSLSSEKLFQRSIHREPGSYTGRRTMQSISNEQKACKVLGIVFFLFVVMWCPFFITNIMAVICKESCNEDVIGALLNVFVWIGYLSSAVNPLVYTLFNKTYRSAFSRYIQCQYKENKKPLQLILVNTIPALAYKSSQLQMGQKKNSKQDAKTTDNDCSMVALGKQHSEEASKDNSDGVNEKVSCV

Study 1
Target: Calcium/calmodulin-dependent protein kinase type II subunit alpha (CAMK2A, Homo sapiens, UniProt Q9UQM7)
Chain of UniProt Q9UQM7 (whole entry, looked up): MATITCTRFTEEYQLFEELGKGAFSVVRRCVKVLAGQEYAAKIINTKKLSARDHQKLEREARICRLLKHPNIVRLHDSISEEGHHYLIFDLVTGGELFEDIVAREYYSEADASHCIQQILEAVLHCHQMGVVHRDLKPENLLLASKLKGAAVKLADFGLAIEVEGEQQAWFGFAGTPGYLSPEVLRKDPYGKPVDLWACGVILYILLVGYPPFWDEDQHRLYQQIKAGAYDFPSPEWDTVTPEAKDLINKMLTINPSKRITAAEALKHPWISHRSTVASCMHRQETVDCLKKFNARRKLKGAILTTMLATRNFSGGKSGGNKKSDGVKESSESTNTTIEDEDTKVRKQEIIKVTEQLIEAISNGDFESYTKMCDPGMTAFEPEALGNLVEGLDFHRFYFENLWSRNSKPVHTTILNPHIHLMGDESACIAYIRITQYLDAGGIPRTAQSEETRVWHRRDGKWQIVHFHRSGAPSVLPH
Effect on: enzyme activity
Action: inhibitor
Concentration: 10 µM
Quantity: inhibition
CO[C@@H]1[C@H](N(C)C(=O)c2ccccc2)C[C@H]2O[C@]1(C)n1c3ccccc3c3c4c(c5c6ccccc6n2c5c31)C(=O)NC4: 40%
Nc1ccc(-c2ccccc2)cn1: -43%
COC(=O)/C=C/c1ccc(O)cc1: -14%
O=c1oc2cc(O)ccc2c2ccccc12: -49%
N[C@@H](Cc1ccccc1)C(=O)N[C@@H](Cc1c[nH]c2ccccc12)C(=O)O: -13%
O=C(N/N=C/c1ccc([N+](=O)[O-])o1)c1ccc(O)cc1: -9%
O=C(O)/C=C/C=C/C(=O)O: -7%
CC(=O)O[C@H]1C[C@@H]2CC[C@@H]3[C@H](CC[C@@]4(C)[C@H]3C[C@H]([N+]3(C)CCCCC3)[C@@H]4OC(C)=O)[C@@]2(C)C[C@@H]1N1CCCCC1: 8%

Study 2
Structure (SMILES): COc1cc(C(=O)N2CCC(N3CCN(C)CC3)CC2)ccc1Nc1ncc2c(n1)N(C)c1ccccc1C(=O)N2C
Quantity: inhibition
ZC1/HGK (mouse); probe labelling, KiNativ, item: LYS1 site peptide; brain tissue lysate (mouse); 0.1 µM, with: ADP acyl-phosphate probe: -21.7% and -25%
CSK mouse; KiNativ profiling; mouse brain lysate; 1 µM, activation loop site, with: ADP acyl phosphate probe: -0.7%
human PBMC; probe labeling, inhibitor, KiNativ profiling, item: DIkGANILR; cell lysate; concentration not given, LYS2 site, with: ADP acyl-phosphate probe: -19.1%
mouse MAP3K5/MAP3K6/MAP3K7; probe labelling, KiNativ ADP probe; mouse brain lysate; 1 µM, LYS1 site IAIkEIPER: 6.6%
FYN (human); probe labelling, KiNativ ATP probe; human PBMC lysate; concentration not given, LYS1 labelled site: 3.1%
MAP3K2 and MAP3K3 (mouse); probe labelling, KiNativ, item: DIkGANILR peptide, LYS2 site; brain tissue lysate (mouse); 1 µM, with: ATP acyl-phosphate probe: -7.5%
STLK5 (mouse); KiNativ ATP probe; mouse brain tissue; 0.1 µM, probe site Lys2: -14.3%
RSK3 domain 2 (mouse); probe labelling, inhibitor, KiNativ ActivX ADP probe; mouse brain lysate; 0.1 µM, Lys1 site peptide: 8.4%

Other studies, line by line
Concentration: 10 µM
CCN(C(C)=O)c1cccc(-c2ccnc3c(C#N)cnn23)c1 — nuclear SOX9 intensity (mouse MPNST tumor cells; high-content immunofluorescence imaging, item: nuclear SOX9; 12 h, mean of 2 replicates; baseline: DMSO control, higher = more nuclear SOX9): 120 % of DMSO
O=C(Nc1ccc(-n2nc(-c3cccnc3)cc2C(F)(F)F)cn1)c1ccc(-c2ccccc2)c(F)c1 — inhibition (HTR2A (Homo sapiens, UniProt P28223); binding, radioligand binding): -1.62%

For quick reference, copied from above (study 2):
MAP3K2 and MAP3K3 (mouse); probe labelling, KiNativ, item: DIkGANILR peptide, LYS2 site; brain tissue lysate (mouse); 1 µM, with: ATP acyl-phosphate probe: -7.5%
STLK5 (mouse); KiNativ ATP probe; mouse brain tissue; 0.1 µM, probe site Lys2: -14.3%
RSK3 domain 2 (mouse); probe labelling, inhibitor, KiNativ ActivX ADP probe; mouse brain lysate; 0.1 µM, Lys1 site peptide: 8.4%
